Measured values from different studies.
Numbered parts are unrelated; each lists some results of a single study.

Sample 1
Target: Centromere-binding protein 1, full length, N-terminal tag (CBF1, Saccharomyces cerevisiae, UniProt P17106, residues 1-351)
Sequence of UniProt P17106 (whole entry, looked up): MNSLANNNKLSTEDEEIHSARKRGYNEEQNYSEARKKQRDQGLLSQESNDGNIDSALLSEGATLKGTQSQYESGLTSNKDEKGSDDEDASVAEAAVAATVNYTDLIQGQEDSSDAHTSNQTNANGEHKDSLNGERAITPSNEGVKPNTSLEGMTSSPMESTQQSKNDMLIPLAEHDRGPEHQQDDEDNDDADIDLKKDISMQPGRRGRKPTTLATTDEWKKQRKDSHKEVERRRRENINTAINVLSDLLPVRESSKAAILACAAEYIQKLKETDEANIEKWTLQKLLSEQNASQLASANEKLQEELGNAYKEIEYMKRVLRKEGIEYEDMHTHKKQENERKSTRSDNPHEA
Technique: protein-binding microarray
Molecule type: double-stranded DNA, one strand shown
Sample: in vitro
Tested at: 0.8 µM
Notes: whole 60-bp probe, no competitor
Direction: higher = stronger binding
All sequences stand within: … GTCTTGATTCGCTTGACGCTGCTG
| Oligonucleotide | fluorescence intensity |
| --- | --- |
| CTAAAAATAAAACCTCATATGATTTACTTTATTTTC | 514 a.u. |
| CCTAACTACTATAATCATCACTTATAGCTTCGTACA | 533 a.u. |
| CTAGGTGGACGCCCCCACGAGTCAGTGTTTCTGTTC | 486 a.u. |
| GAATATGACTACTACGTGATGGTCGATAGTTGATAG | 569 a.u. |
| CTAACAATGAATACATGTGATATAGATACTTAATTC | 1580 a.u. |
| GAAGACTGATTATGACGTCGGATCCTATGACAATAG | 531 a.u. |
| GAACAGTAAATTCATGATGTGCCTATGAATATGTAG | 506 a.u. |
| GAAAGTATATAGCACCACGAGTGAGTTAAATTCTAG | 586 a.u. |
| CTAATGGAGAGAGGCCACGTTGTTAGGGGAGTATTC | 497 a.u. |
| CTACGCTCTTGTTTTCGCGTGCCTCTTCTACAATTC | 567 a.u. |
| CTAGAACTCTTTGATCATGTGATATGAATATGTTTC | 8640 a.u. |
| CTATTAGTAACGCATAACGTGTTATCTGCGACATTC | 593 a.u. |
| GAATGTACTTAGCGTCACGCGCTATGGAAATATTAG | 1940 a.u. |
| CTACACATGATTCACCTGATTACGACTCACTATTTC | 786 a.u. |
| GAATTTTGGTAAATCAACGTGCAGAAAAAATAATAG | 625 a.u. |
| CTATATCGTGCCGTCATCACCATCGATTTGAATTTC | 540 a.u. |
| CTAACGGCATGTCAACAGGTGAGTGCCTTTTGATTC | 479 a.u. |
| CTATCACACGTCCGTCATGTCTACTTTGAGTCATTC | 568 a.u. |
| CTAGGATACGCAACTGATGTTGTATAGAAATTTTTC | 510 a.u. |
| GAACACCTGCAAGGGGTCGTGCCAATGACGAAATAG | 554 a.u. |
| CTAGCGCGATCCTGTCACGGAGAACTGTCCGCATTC | 531 a.u. |

Sample 2
Target: Histone acetyltransferase KAT6A, winged helix 2, GST fusion (KAT6A, Homo sapiens, UniProt Q92794, residues 85-181)
Technique: protein binding microarray
Molecule type: double-stranded DNA, one strand shown
Sample: in vitro
Tested at: not given
Notes: 8-mer, flanks averaged, mean of 2 arrays, mostly near background
Relative to: not given
Direction: higher = stronger binding
Target sequence (chain): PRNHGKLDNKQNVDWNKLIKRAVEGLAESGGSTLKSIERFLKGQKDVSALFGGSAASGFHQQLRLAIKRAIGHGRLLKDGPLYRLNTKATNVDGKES
| Oligonucleotide | E-score |
| --- | --- |
| AGATGGCT | -0.0303 |
| CCTACGAC | -0.0375 |
| TAGGTTAA | 0.028 |
| AATAACAC | -0.133 |
| CATAGTCG | -0.0607 |
| ACGTGTTC | -0.174 |
| GGCGGAGA | 0.265 |
| AGGGTCCA | -0.0237 |
| ATGGCTAG | -0.145 |
| CCGTTCCA | -0.0126 |
| GTGGCCCA | 0.115 |
| GTTGAGCA | -0.00937 |
| CGATCGGA | -0.0531 |
| ATGGTGCA | 0.00475 |
| AAACTCTA | -0.081 |
| CTATTAAC | -0.0574 |
| ATACCTAG | -0.163 |
| ACATCCCT | 0.0741 |
| ACTCAATG | -0.0446 |
| GTACAAAA | -0.0799 |
| AGGAGAGA | -0.137 |
| GGGAAGAC | 0.012 |
| CCGCCGAA | 0.246 |
| AGTGCACC | -0.0588 |

Sample 3
Target: RNA binding protein fox-1 homolog 2, RRM domain, GST-SBP tag (RBFOX2, Homo sapiens, UniProt O43251-10, residues 100-194)
Technique: RNA Bind-n-Seq
Molecule type: RNA
Sample: in vitro
Tested at: 365 nM
Notes: natural RNA segment, single round, ends assumed
Relative to: no-protein control
Direction: higher = stronger binding
All sequences stand within: GGGAGUUCUACAGUCCGACGAUC … UGGAAUUCUCGGGUGCCAA
Residues (chain): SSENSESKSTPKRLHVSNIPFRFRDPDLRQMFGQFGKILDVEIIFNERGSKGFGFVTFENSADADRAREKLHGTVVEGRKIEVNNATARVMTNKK
| Oligonucleotide | RBNS enrichment (R) |
| --- | --- |
| AAGUGCUUUUUUGCAGUCUCCUUUGUUGCUGAUUUCAUGUGUCCGAUUCCUUCUGUAUGUCAUUCUUGUUAACAAGACCAUAACCUCCCCGACCUGACACCUCAUAUGAU | 0.447 |
| GAAGAAGAAAGAUUCAGUAACUUGAAGAGAAGAUGUGAAGUGUUUAUCUGUGAACUGCAGUGCUGUAUCAAAGCAGUCCAGUAACCUGCAGUACUGAGUAUGGUGCUUGC | 0.635 |
| CAAUAGUAAUAAGGUAGCAUUUCUAGUCUUCCUCAUUACAAAAUGUAGCUGUUUUCUAAGUAGGAAAAUGUAAUUUGAAAUUAUCUUGCCACCAUACAGUUUUACUUUUU | 0.419 |
| UUCAUAAUGCAGUUGCCCAAGGCCUGUCUUGCAGUGGUACCUUAAAGUUAACCUCAUAAUCUUGGAACUUGGGCUCCAACCCUUAUGAUUGUGGAGUGUUUACUAGAUAC | 0.497 |
| UGCUUCGCUUGUUUGUAAGGAGAAAUGCAUCUGGUUAUGUGAAUUUCCCGAGAGCAGCAGACAUGGAGGGCCAGACUUUAAAAGCAACGCAAGCAGAUUCGAAGAGCUGU | 1.02 |
| CUGUGAAUUAGCACUAUUUUCUAUAGUUACUUAUUCUCUGGAUCAUUUUAUAAUUUCCAUAUUAAUUUCAAAUAUGCUCGUGUUAUUCUUCAGUGAUUUCCACAAUUGUG | 1.5 |
| GACCAGCCAUUGAGGGGUGGACCCUCAGAAGGCGUCACAACAACCUGGUCACAGGACUCUGCCUCCUCUUCAACUGACCAGCCUCCAUGCUGCCUCCAGAAUGGUCUUUC | 0.31 |
| GGCGAAAGGGGCCUUGGCUCUUGCCCUGUGGCAGUGACCUUGGGGUCCGUACUAUGCCCAGGUGUCAGCAGGAAACAAGGCCUUGCUCACAGGAGCACAGGCUGUACCAC | 0.243 |
| UUAUCUGGACAUGAUUUUGCUAUGCAGUUGUGAUAAUAAAAAUUCCAGCUCCUCAGGUUUAACCUCUAAGUUGUGGAUGGAGACUAUUUAAAGUACACAUGAUGUAUUCA | 0.601 |
| GGAAAUAACUGUGUAACAAAUCGUAUUAUAAAUAUUUCAAUUAAUUUUACUCUGAAUUUGUUUAUUAAAAGACUUUUGAACAUGAAAUGAUUAGUAUUACUUGAAUGCAU | 1.01 |
| CAUAGAAAAUCCUUUUUUGCUUUUCCUUUUGAGACAGAGUUUUGGUAGCUCCUACCAGCCUCCAAUUCUCUAUGUAGCUGAAGAUGACCUUGACUACCUGAGUUUCCUGU | 0.26 |
| AACAUCUUUAAGUGCCAUGAGUAAUUUUUCCUGACUCUGUUUCAUAGCUUUGUAAGAAUUCUGUGUCUUUAUAAGACACAGAAGCAAGGCAGGUGCUACAUAAAAAAGUA | 0.345 |

Sample 4
Target: Fragile X messenger ribonucleoprotein 1, C-terminal low-complexity region (Fmr1, Mus musculus, UniProt P35922)
Technique: RNA Bind-n-Seq
Molecule type: RNA
Sample: in vitro
Tested at: 200 nM
Notes: whole 134-nt RNA, ends assumed
Together with: 150 mM LiCl
Relative to: input library
Direction: higher = stronger binding
Each molecule: 7-deaza-guanosine replaces G
All sequences stand within: GGGAGUUCUACAGUCCGACGAUC … UGGAAUUCUCGGGUGUCAAGG
| Oligonucleotide | log2 enrichment |
| --- | --- |
| CAAGUCCUGUGCUACACAUCGUAUGUACCGAAUCGGUUUUUUUGGUGGAAAAAGGAAAGUAUUAUGUUACGCCGUUCGGAUCUGCACUUC | -1.28 |
| CACAGACAACACGCACCCACACAGACACAGAGGGAAGGGGUUGGGAUGGGGACAGUGUGCACAGCAGGGCGGGGUAGGACCCCAGCCCCU | 0.1 |
| UUCCUCAAGUCCUGUGCUACACAUCGUAUGUACCGAAUCGGAGGAGGAGGGAAAGUAUUAUGUUACGCCGUUCGGAUCUGCACUUCCAGC | -2.53 |
| AGUCCUGUGCUACACAUCGUAUGUACCGAAUCGGGAAAAAGGGGAAAAAGGAAAAAGGAAAGUAUUAUGUUACGCCGUUCGGAUCUGCAC | -0.769 |
| CCUGUGCUACACAUCGUAUGUACCGAAUCGGGGUUUGGGGUUUUUUUGGGGAAAAAGGGGAAAGUAUUAUGUUACGCCGUUCGGAUCUGC | -0.825 |
| CCUGUGCUACACAUCGUAUGUACCGAAUCGGGGUUUUUGGGGUUUUUGGGGAAAAAGGGGAAAGUAUUAUGUUACGCCGUUCGGAUCUGC | -0.31 |
| ACCAUGCAGGUGGGCAUCUUUGGGAAGUGGGGCAAGGGGGGGAUAGGGACGGGGGUAACACUUUGGGAACAGGUGGUCCCAGGUCGUUUC | 0.679 |
| CCUGUGCUACACAUCGUAUGUACCGAAUCGGGGAGGGGUUUUUUUGGGGAAAAAAAGGGGAAAGUAUUAUGUUACGCCGUUCGGAUCUGC | -1.25 |
| CUCAAGUCCUGUGCUACACAUCGUAUGUACCGAAUCGGGCGGGGCGGGCGGGGAAAGUAUUAUGUUACGCCGUUCGGAUCUGCACUUCCA | -0.0526 |
| UCCUCAAGUCCUGUGCUACACAUCGUAUGUACCGAAUCGGAGGAGGGGAGGGAAAGUAUUAUGUUACGCCGUUCGGAUCUGCACUUCCAG | -1.46 |
| CCUGUGCUACACAUCGUAUGUACCGAAUCGGGGUGGGGAAAAAAAGGGGAAAAAAAGGGGAAAGUAUUAUGUUACGCCGUUCGGAUCUGC | -0.525 |

For quick reference, copied from above (sample 1):
| Oligonucleotide | fluorescence intensity |
| --- | --- |
| GAAAGTATATAGCACCACGAGTGAGTTAAATTCTAG | 586 a.u. |
| CTAATGGAGAGAGGCCACGTTGTTAGGGGAGTATTC | 497 a.u. |
| CTACGCTCTTGTTTTCGCGTGCCTCTTCTACAATTC | 567 a.u. |
| CTAGAACTCTTTGATCATGTGATATGAATATGTTTC | 8640 a.u. |
| CTATTAGTAACGCATAACGTGTTATCTGCGACATTC | 593 a.u. |
